# Measured values gathered from unrelated publications.
# Protocols differ between the studies behind these lines. ± gives the spread as reported.
SMILES,system,conditions,endpoint,result
CCCC[C@H](NC(=O)CNC(=O)CNC(=O)CN1CCN(CC(=O)O)CCN(CC(=O)O)CCN(CC(=O)O)CC1)C(=O)N[C@H]1CC(=O)NCCCC[C@@H](C(N)=O)NC(=O)[C@H](Cc2c[nH]c3ccccc23)NC(=O)[C@H](CCCNC(=N)N)NC(=O)[C@@H](Cc2ccccc2)NC(=O)[C@H](Cc2c[nH]cn2)NC1=O [lutetium-177 labelled],"C57 mouse, female, muscle","intravenous, 0.037 MBq, 0.5 h",tissue uptake,1.05 ± 0.34 %ID/g
CC1(C)C(/C=C/C2=C(Oc3ccc(CCC(=O)N[C@@H](CSC4CC(=O)N(CCNC(=O)CN5CCN(CC(=O)O)CCN(CC(=O)O)CCN(CC(=O)O)CC5)C4=O)C(=O)NCCCC[C@@H]4NC(=O)[C@@H](Cc5ccc(O)cc5)NC(=O)[C@H](CC(=O)O)NC(=O)CNC(=O)[C@H](CCCNC(=N)N)NC4=O)cc3)C(=C/C=C3/N(CCC[N+](C)(C)C)c4ccc(S(=O)(=O)O)cc4C3(C)C)/CCC2)=[N+](CCC[N+](C)(C)C)c2ccc(S(=O)(=O)O)cc21 (stereo partly shown),,,emission maximum,790 nm
CC(C)C[C@H](NC(=O)[C@H](Cc1ccc(O)cc1)NC(=O)[C@@H](CCCNC(=N)N)NC(=O)[C@@H](CO)NC(=O)[C@H](Cc1ccccc1)NC(=O)[C@H](CC1CCCCC1)NC(=O)[C@H](CC(=O)O)NC(=O)CN1CCCN2CCN(CCCN(CC(=O)O)CC2)CC1)C(=O)N[C@@H](Cc1c[nH]c2ccccc12)C(=O)N[C@@H](CO)C(=O)O [copper-64 labelled],"female NMRI nude mice, bone",1 h p.i.,tissue uptake,1.1 ± 0.4 %ID/g
CC(C)C[C@H](NC(=O)[C@H](Cc1ccc(O)cc1)NC(=O)[C@@H](CCCNC(=N)N)NC(=O)[C@@H](CO)NC(=O)[C@H](Cc1ccccc1)NC(=O)[C@H](CC1CCCCC1)NC(=O)[C@H](CC(=O)O)NC(=O)CN1CCN(CC(=O)O)CCN(CC(=O)O)CCN(CC(=O)O)CC1)C(=O)N[C@@H](Cc1c[nH]c2ccccc12)C(=O)N[C@@H](CO)C(=O)O [copper-64 labelled],human,200 MBq,effective dose,5.5 mSv
N=C(N)NCCC[C@@H]1NC(=O)[C@H](CCCCNC(=O)CC[C@H](NC(=O)CC[C@H](NC(=O)CN2CCN(CC(=O)O)CCN(CC(=O)O)CCN(CC(=O)O)CC2)C(=O)N[C@@H](CCC(=O)NCCCC[C@@H]2NC(=O)[C@@H](Cc3ccccc3)NC(=O)[C@H](CC(=O)O)NC(=O)CNC(=O)[C@H](CCCNC(=N)N)NC2=O)C(=O)NCCCC[C@@H]2NC(=O)[C@@H](Cc3ccccc3)NC(=O)[C@H](CC(=O)O)NC(=O)CNC(=O)[C@H](CCCNC(=N)N)NC2=O)C(=O)NCCCC[C@@H]2NC(=O)[C@@H](Cc3ccccc3)NC(=O)[C@H](CC(=O)O)NC(=O)CNC(=O)[C@H](CCCNC(=N)N)NC2=O)NC(=O)[C@@H](Cc2ccccc2)NC(=O)[C@H](CC(=O)O)NC(=O)CNC1=O [indium-111 labelled],"female athymic nu/nu mice, bone","intravenous, 24 h",tissue uptake,0.53 ± 0.27 %ID/g
Cc1cc(-c2ccc(NC(=O)[C@H](CCCCNC(=O)CCN3C(=O)CC(SCCC(=O)N[C@H](Cc4ccccc4)C(=O)N[C@H]4CSSC[C@@H](C(=O)N[C@H](C(=O)O)[C@@H](C)O)NC(=O)[C@H]([C@@H](C)O)NC(=O)[C@H](CCCCN)NC(=O)[C@@H](Cc5c[nH]c6ccccc56)NC(=O)[C@H](Cc5ccc(O)cc5)NC4=O)C3=O)NC(=O)CN3CCN(CC(=O)O)CCN(CC(=O)O)CCN(CC(=O)O)CC3)c(C)c2)ccc1N=Nc1ccc2c(S(=O)(=O)O)cc(S(=O)(=O)O)c(N)c2c1O (stereo partly shown) [lutetium-177 labelled],"metastatic NET patients, liver metastases",,absorbed dose,0.84 ± 0.07 Gy/GBq
CCCC[C@H](NC(=O)CCCCCCCNC(=O)CN1CCN(CC(=O)O)CCN(CC(=O)O)CC1)C(=O)N[C@H]1CC(=O)NCCCC[C@@H](C(N)=O)NC(=O)[C@H](Cc2c[nH]c3ccccc23)NC(=O)[C@H](CCCNC(=N)N)NC(=O)[C@@H](Cc2ccccc2)NC(=O)[C@H](Cc2c[nH]cn2)NC1=O [copper-64 labelled],"C57 mice, lung","intravenous, 0.37 MBq, 0.5 h",tissue uptake,3.88 ± 0.71 %ID/g
CCCC[C@H](NC(=O)CNC(=O)CNC(=O)CN1CCN(CC(=O)O)CCN(CC(=O)O)CC1)C(=O)N[C@H]1CC(=O)NCCCC[C@@H](C(N)=O)NC(=O)[C@H](Cc2c[nH]c3ccccc23)NC(=O)[C@H](CCCNC(=N)N)NC(=O)[C@@H](Cc2ccccc2)NC(=O)[C@H](Cc2c[nH]cn2)NC1=O [technetium-99m labelled],"C57 mouse, heart","iv, 0.037 MBq, 4 h",tissue uptake,0.07 ± 0.03 %ID/g
N=C(N)NCCC[C@@H]1NC(=O)[C@H](CCCCNC(=O)CNC(=O)CNC(=O)CNC(=O)CC[C@H](NC(=O)CNC(=O)CNC(=O)CNC(=O)CC[C@H](NC(=O)CN2CCN(CC(=O)O)CCN(CC(=O)O)CCN(CC(=O)O)CC2)C(=O)NCC(=O)NCC(=O)NCC(=O)N[C@@H](CCC(=O)NCC(=O)NCC(=O)NCC(=O)NCCCC[C@@H]2NC(=O)[C@@H](Cc3ccccc3)NC(=O)[C@H](CC(=O)O)NC(=O)CNC(=O)[C@H](CCCNC(=N)N)NC2=O)C(=O)NCC(=O)NCC(=O)NCC(=O)NCCCC[C@@H]2NC(=O)[C@@H](Cc3ccccc3)NC(=O)[C@H](CC(=O)O)NC(=O)CNC(=O)[C@H](CCCNC(=N)N)NC2=O)C(=O)NCC(=O)NCC(=O)NCC(=O)NCCCC[C@@H]2NC(=O)[C@@H](Cc3ccccc3)NC(=O)[C@H](CC(=O)O)NC(=O)CNC(=O)[C@H](CCCNC(=N)N)NC2=O)NC(=O)[C@@H](Cc2ccccc2)NC(=O)[C@H](CC(=O)O)NC(=O)CNC1=O [indium-111 labelled],"female athymic nu/nu mice, intestine","intravenous, 0.5 h",tissue uptake,7.15 ± 3.7 %ID/g
CCCC[C@H](NC(=O)COCCOCCNC(=O)CN1CCN(CC(=O)O)CCN(CC(=O)O)CC1)C(=O)N[C@H]1CC(=O)NCCCC[C@@H](C(N)=O)NC(=O)[C@H](Cc2c[nH]c3ccccc23)NC(=O)[C@H](CCCNC(=N)N)NC(=O)[C@@H](Cc2ccccc2)NC(=O)[C@H](Cc2c[nH]cn2)NC1=O [copper-64 labelled],"C57 mice, brain","intravenous, 0.37 MBq, 24 h",tissue uptake,0.04 ± 0.03 %ID/g

# A few entries again:
SMILES,system,conditions,endpoint,result
CCCC[C@H](NC(=O)CCCCCCCNC(=O)CN1CCN(CC(=O)O)CCN(CC(=O)O)CC1)C(=O)N[C@H]1CC(=O)NCCCC[C@@H](C(N)=O)NC(=O)[C@H](Cc2c[nH]c3ccccc23)NC(=O)[C@H](CCCNC(=N)N)NC(=O)[C@@H](Cc2ccccc2)NC(=O)[C@H](Cc2c[nH]cn2)NC1=O [copper-64 labelled],"C57 mice, lung","intravenous, 0.37 MBq, 0.5 h",tissue uptake,3.88 ± 0.71 %ID/g
